{"data": "Assay results gathered from unrelated publications", "target": "ATP-dependent translocase ABCB1 (ABCB1, Homo sapiens, UniProt P08183)", "note": "Protocols differ between the studies behind these lines. ± gives the spread as reported.", "chain of UniProt P08183 (whole entry, looked up)": "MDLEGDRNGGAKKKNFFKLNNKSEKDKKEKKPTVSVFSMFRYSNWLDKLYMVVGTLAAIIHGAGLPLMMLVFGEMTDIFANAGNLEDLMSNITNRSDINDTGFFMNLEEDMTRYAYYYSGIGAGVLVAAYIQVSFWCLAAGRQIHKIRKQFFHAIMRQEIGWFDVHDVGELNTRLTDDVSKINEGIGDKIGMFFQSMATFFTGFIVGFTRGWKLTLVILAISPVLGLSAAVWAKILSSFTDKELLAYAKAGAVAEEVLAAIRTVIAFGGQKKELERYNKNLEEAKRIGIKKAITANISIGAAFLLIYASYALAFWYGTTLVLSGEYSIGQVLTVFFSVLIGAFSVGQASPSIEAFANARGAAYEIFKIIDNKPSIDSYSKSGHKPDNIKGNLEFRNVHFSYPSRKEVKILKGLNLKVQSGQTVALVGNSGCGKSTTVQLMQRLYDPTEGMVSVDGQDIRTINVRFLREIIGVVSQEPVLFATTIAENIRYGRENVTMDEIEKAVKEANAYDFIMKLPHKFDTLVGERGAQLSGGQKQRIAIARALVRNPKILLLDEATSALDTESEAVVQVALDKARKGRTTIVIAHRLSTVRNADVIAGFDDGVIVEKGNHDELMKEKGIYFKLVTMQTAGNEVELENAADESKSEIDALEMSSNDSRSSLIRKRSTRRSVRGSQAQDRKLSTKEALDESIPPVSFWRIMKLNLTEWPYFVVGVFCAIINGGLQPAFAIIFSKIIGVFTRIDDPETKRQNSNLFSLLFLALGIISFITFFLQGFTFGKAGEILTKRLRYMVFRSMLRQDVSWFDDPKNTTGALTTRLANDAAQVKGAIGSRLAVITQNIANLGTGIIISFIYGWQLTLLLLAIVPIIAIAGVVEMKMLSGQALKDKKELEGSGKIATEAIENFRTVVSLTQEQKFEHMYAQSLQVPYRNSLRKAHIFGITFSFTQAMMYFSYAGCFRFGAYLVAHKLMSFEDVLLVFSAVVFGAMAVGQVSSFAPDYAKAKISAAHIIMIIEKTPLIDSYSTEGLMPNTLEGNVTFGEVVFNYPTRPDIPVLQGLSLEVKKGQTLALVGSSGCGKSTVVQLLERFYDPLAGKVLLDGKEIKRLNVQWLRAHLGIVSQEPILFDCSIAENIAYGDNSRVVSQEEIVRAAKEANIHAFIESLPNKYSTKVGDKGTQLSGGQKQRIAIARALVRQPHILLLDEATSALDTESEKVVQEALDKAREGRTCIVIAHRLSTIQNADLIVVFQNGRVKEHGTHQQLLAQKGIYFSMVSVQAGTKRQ"}
{"SMILES": "Cc1cc(S(=O)(=O)N[C@]2(C)C[C@H](N3CCN(CC4CCN(c5ccc6c(c5F)n(C)c(=O)n6C5CCC(=O)NC5=O)CC4)CC3)C2)ccc1Nc1ncc(C(F)(F)F)c(N2CCC[C@](C)(O)C2)n1 (some centres unmarked)", "assay": "bidirectional transport", "test system": "MDCK cells expressing ABCB1", "setting": "1 µM, 120 min, pH 7.4", "endpoint": "efflux ratio", "value": 29}
{"SMILES": "C[C@]12CCCN1CC1=NNC(=O)c3cc(F)cc4[nH]c2c1c34", "test system": "MDCKII-MDR1", "setting": "10 µM, together with: verapamil 100 µM", "endpoint": "Papp A-B", "value": "33.9 ×10⁻⁶ cm/s"}
{"SMILES": "Cc1cc(S(=O)(=O)N[C@H]2CC[C@H](N3CCN(CC4CCN(c5cccc6c5n(C)c(=O)n6C5CCC(=O)NC5=O)CC4)CC3)CC2)ccc1Nc1ncc(C(F)(F)F)c(N2CCC[C@](C)(O)C2)n1 (some centres unmarked)", "assay": "bidirectional transport", "test system": "MDCK cells expressing ABCB1", "setting": "1 µM, 120 min, pH 7.4", "endpoint": "efflux ratio", "value": "> 108"}
{"SMILES": "Cc1cc(Nc2ncnc3ccc(NC4=NC(C)(C)CO4)cc23)ccc1Oc1ccn2ncnc2c1", "assay": "bidirectional transwell permeability", "test system": "MDCKII cells transfected with ABCB1", "setting": "1 µM, 1 h, pH 7.4, together with: elacridar 0.5 µM", "endpoint": "efflux ratio", "value": "0.69 ± 0.04"}
{"SMILES": "CC1(C)CCC2(CC1)N[C@@H](C(=O)N[C@@H]1CC[C@@H](C(N)=O)OC1)[C@H](c1ccnc(Cl)c1F)[C@]21C(=O)Nc2cc(Cl)ccc21", "test system": "Caco-2 monolayers", "setting": "1 µM, 120 min, no inhibitor", "endpoint": "Papp A to B", "value": "1.13 ×10⁻⁶ cm/s"}
{"SMILES": "CN(CCC(=O)O)C(=O)c1ccc2c(c1)CC[C@@H]1[C@@H]2CC[C@]2(C)C(c3cncc(F)c3)=CC[C@@H]12", "assay": "transport, inhibitor", "endpoint": "IC50", "value": "21 µM"}
{"SMILES": "C=C(F)C(=O)N1CCN(c2nc(OC[C@@H]3CCCN3C)nc3c2CCN(c2cccc4cccc(Cl)c24)C3)C[C@@H]1CC#N", "test system": "MDCK-MDR1", "endpoint": "Papp A-B", "value": "0.7 ×10⁻⁶ cm/s"}
{"SMILES": "CC[C@H]1[C@@H](O)[C@@H]2[C@H](CC[C@]3(C)[C@@H]([C@H](C)CCNC(=O)NS(=O)(=O)c4ccc(C(C)(C)C)cc4)CC[C@@H]23)[C@@]2(C)CC[C@@H](O)C[C@@H]12", "test system": "human, plasma", "setting": "geometric mean, together with: quinidine", "endpoint": "Tlast", "value": "88.8 h"}
{"SMILES": "CCOc1cc2ncc(C#N)c(Nc3ccc(OCc4ccccn4)c(Cl)c3)c2cc1NC(=O)/C=C/CN(C)C", "assay": "bidirectional transwell permeability", "test system": "MDCKII cells transfected with ABCB1", "setting": "1 µM, 1 h, pH 7.4", "endpoint": "Papp A-B", "value": "0.39 ± 0.23 ×10⁻⁶ cm/s"}
{"SMILES": "C=CC(=O)N1CC2(CCN(c3nc4c(c(-c5cc(O)cc6ccccc56)c3C#N)C[C@H]3C[C@@H]4C3(C)C)C2)C1", "endpoint": "efflux ratio", "value": 33}
{"SMILES": "CS(=O)(=O)CCNCc1ccc(-c2ccc3ncnc(Nc4ccc(OCc5cccc(F)c5)c(Cl)c4)c3c2)o1", "assay": "bidirectional transwell permeability", "test system": "MDCKII cells transfected with ABCB1", "setting": "1 µM, 1 h, pH 7.4, together with: elacridar 0.5 µM", "endpoint": "Papp A-B", "value": "1.11 ± 0.69 ×10⁻⁶ cm/s"}
{"SMILES": "Cc1cc(S(=O)(=O)NC2CC(N3CCN(CC4CCN(c5cccc6c5n(C)c(=O)n6C5CCC(=O)NC5=O)CC4)C4(CC4)C3)C2)ccc1Nc1ncc(C(F)(F)F)c(N2CCC[C@](C)(O)C2)n1 (some centres unmarked)", "assay": "bidirectional transport", "test system": "MDCK cells expressing ABCB1", "setting": "1 µM, 120 min, pH 7.4", "endpoint": "efflux ratio", "value": 41}
{"SMILES": "C[C@H]1O[C@@H](O[C@H]2[C@@H](O)C[C@H](O[C@H]3[C@@H](O)C[C@H](O[C@H]4CC[C@@]5(C)[C@H](CC[C@@H]6[C@@H]5C[C@@H](O)[C@]5(C)[C@@H](C7=CC(=O)OC7)CC[C@]65O)C4)O[C@@H]3C)O[C@@H]2C)C[C@H](O)[C@@H]1O", "assay": "substrate", "test system": "human EpiIntestinal microtissues", "setting": "5 µM, 2 h, together with: zosuquidar 5 µM", "endpoint": "Papp (B to A)", "value": "4.3 ± 0.9 ×10⁻⁶ cm/s"}
{"SMILES": "C[C@H]1O[C@@H](O[C@H]2[C@@H](O)C[C@H](O[C@H]3[C@@H](O)C[C@H](O[C@H]4CC[C@@]5(C)[C@H](CC[C@@H]6[C@@H]5C[C@@H](O)[C@]5(C)[C@@H](C7=CC(=O)OC7)CC[C@]65O)C4)O[C@@H]3C)O[C@@H]2C)C[C@H](O)[C@@H]1O", "assay": "substrate", "test system": "MDCK-II cells expressing ABCB1", "setting": "10 µM, together with: zosuquidar 5 µM", "endpoint": "efflux ratio decrease", "value": "96.2%"}
{"note": "A few entries again:"}
{"SMILES": "C[C@H]1O[C@@H](O[C@H]2[C@@H](O)C[C@H](O[C@H]3[C@@H](O)C[C@H](O[C@H]4CC[C@@]5(C)[C@H](CC[C@@H]6[C@@H]5C[C@@H](O)[C@]5(C)[C@@H](C7=CC(=O)OC7)CC[C@]65O)C4)O[C@@H]3C)O[C@@H]2C)C[C@H](O)[C@@H]1O", "assay": "substrate", "test system": "human EpiIntestinal microtissues", "setting": "5 µM, 2 h, together with: zosuquidar 5 µM", "endpoint": "Papp (B to A)", "value": "4.3 ± 0.9 ×10⁻⁶ cm/s"}
